# Measurements pooled from the literature.
# Every numbered part comes from another study and shows a few of its results, in no order.
# Sequence of UniProt P27037 (whole entry, looked up): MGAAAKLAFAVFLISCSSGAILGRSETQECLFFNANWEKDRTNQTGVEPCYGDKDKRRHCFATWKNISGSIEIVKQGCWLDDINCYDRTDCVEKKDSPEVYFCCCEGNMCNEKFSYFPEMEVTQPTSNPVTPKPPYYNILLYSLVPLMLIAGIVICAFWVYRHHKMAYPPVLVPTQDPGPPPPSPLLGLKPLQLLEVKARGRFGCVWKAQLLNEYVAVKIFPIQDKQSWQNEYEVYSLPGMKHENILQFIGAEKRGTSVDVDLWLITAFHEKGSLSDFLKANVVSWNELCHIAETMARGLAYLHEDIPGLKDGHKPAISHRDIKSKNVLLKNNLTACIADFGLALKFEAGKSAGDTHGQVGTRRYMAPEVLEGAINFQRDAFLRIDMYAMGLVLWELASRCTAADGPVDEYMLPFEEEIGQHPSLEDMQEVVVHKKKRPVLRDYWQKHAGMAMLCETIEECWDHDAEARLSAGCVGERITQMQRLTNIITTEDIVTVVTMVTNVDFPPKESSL
# Sequence of UniProt P53671 (whole entry, looked up): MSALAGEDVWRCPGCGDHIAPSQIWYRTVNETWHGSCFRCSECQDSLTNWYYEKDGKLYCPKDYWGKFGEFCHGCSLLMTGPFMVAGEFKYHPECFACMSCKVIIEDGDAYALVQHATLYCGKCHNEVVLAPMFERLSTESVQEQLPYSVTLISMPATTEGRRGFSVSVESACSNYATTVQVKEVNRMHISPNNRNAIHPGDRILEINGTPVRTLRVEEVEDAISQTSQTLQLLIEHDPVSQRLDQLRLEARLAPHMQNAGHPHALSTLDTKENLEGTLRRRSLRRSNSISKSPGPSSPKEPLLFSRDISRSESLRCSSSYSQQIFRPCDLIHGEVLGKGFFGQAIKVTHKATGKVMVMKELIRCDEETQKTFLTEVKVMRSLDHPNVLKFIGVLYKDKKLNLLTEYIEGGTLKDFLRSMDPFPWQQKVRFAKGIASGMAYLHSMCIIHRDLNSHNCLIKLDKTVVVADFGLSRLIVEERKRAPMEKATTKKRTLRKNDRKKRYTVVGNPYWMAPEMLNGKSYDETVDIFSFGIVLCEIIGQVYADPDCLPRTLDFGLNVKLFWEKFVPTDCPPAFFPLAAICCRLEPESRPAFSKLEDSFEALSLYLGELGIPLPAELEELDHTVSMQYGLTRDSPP
# Sequence of UniProt P35590 (whole entry, looked up): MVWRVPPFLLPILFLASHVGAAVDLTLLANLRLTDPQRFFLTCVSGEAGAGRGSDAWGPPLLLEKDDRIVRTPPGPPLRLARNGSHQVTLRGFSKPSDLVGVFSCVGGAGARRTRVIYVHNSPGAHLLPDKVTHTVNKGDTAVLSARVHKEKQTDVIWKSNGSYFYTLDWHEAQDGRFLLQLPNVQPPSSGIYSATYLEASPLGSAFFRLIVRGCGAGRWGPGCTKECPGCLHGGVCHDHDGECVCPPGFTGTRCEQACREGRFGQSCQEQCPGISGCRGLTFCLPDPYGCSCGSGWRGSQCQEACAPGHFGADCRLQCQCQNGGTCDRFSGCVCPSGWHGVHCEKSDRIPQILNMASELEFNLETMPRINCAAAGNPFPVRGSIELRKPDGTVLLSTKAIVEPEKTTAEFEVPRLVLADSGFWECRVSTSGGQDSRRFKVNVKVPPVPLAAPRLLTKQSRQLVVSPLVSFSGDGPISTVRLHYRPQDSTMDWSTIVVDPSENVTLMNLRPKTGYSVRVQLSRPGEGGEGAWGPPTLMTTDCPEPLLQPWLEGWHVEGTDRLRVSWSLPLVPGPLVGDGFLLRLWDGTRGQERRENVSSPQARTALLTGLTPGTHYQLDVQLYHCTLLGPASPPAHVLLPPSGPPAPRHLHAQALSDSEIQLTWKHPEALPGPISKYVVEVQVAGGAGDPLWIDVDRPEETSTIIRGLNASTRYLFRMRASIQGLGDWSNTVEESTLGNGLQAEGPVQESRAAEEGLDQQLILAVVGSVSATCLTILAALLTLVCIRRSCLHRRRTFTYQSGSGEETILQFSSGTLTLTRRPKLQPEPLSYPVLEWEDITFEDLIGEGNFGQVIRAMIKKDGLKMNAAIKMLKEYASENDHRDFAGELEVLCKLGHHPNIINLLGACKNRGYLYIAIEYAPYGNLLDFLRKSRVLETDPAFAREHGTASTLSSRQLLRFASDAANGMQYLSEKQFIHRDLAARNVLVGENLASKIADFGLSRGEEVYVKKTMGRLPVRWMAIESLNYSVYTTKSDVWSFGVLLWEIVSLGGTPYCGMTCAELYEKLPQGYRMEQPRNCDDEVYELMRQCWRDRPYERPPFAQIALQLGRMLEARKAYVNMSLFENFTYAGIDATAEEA
# Sequence of UniProt O75417 (whole entry, unmodified, looked up): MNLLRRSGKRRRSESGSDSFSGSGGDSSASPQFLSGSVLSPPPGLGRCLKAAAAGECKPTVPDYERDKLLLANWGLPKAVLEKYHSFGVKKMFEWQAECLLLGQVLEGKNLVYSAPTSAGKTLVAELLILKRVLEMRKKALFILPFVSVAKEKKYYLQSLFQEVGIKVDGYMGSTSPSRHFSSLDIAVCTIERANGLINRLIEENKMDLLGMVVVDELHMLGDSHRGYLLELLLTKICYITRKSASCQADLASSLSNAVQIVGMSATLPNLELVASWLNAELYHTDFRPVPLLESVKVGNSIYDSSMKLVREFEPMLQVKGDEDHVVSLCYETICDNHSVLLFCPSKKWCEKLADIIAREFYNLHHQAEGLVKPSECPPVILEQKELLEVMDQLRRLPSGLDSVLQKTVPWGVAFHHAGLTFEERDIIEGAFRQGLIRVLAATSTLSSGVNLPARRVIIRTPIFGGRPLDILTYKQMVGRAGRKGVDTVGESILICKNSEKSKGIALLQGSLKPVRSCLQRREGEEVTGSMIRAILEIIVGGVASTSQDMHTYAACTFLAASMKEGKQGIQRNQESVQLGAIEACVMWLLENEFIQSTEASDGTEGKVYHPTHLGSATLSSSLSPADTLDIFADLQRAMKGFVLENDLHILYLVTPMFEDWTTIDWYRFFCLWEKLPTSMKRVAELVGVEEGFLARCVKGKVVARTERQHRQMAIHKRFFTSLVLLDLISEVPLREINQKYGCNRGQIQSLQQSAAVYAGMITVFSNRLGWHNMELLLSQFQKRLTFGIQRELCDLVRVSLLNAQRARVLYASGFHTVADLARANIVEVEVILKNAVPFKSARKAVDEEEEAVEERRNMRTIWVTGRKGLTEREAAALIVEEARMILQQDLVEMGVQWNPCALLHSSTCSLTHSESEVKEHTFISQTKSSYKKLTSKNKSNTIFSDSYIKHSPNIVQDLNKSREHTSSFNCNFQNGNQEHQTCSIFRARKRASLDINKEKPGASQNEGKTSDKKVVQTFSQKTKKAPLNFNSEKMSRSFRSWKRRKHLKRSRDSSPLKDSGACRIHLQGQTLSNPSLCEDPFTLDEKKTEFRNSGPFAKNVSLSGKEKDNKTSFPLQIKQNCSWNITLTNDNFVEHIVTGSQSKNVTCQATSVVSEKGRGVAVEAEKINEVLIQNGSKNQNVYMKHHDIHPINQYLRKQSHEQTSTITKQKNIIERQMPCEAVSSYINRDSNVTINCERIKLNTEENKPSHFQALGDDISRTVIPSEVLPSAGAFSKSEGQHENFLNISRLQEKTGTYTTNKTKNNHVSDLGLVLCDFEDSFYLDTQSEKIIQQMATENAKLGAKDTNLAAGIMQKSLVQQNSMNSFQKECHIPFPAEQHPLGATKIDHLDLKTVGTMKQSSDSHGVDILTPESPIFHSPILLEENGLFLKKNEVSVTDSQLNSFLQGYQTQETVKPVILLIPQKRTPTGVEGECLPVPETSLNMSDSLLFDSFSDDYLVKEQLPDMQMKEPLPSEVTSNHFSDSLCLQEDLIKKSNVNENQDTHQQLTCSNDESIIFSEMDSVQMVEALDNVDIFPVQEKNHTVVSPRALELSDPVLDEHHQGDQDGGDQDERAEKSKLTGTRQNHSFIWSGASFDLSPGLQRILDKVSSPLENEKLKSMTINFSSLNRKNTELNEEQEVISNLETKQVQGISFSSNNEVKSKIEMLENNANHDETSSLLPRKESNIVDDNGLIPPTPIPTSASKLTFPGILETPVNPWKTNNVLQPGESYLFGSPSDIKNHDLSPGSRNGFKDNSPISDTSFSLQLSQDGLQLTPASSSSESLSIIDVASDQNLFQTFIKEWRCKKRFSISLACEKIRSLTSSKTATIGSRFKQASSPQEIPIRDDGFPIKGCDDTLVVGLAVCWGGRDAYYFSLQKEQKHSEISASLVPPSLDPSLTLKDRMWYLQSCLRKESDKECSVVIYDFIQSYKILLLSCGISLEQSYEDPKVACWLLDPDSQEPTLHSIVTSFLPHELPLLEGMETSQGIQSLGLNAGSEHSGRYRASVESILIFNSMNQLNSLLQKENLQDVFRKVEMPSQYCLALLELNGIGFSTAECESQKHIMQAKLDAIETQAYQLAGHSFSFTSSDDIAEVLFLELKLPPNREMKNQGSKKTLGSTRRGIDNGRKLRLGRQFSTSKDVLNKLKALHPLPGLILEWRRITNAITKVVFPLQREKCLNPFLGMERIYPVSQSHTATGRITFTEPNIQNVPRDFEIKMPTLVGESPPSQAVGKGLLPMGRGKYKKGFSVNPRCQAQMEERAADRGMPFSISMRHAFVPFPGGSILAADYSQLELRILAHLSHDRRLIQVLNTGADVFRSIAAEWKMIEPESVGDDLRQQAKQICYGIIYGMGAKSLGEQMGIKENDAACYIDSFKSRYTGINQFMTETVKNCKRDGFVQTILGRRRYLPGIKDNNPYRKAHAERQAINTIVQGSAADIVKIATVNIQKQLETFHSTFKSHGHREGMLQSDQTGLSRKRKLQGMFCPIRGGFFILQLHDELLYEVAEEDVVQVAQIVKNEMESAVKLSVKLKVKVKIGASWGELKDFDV

# Block 1 — cell line: mouse MPNST tumor cells; method: high-content immunofluorescence imaging; item: nuclear SOX9; concentration: 10 µM; time: 12 h; setting: mean of 2 replicates; relative to: DMSO control; direction: higher = more nuclear SOX9
SMILES,nuclear SOX9 intensity
CO[C@@H]1[C@@H](OC(N)=O)[C@@H](O)[C@H](Oc2ccc3c(O)c(NC(=O)c4ccc(O)c(CC=C(C)C)c4)c(=O)oc3c2C)OC1(C)C,118 % of DMSO
CNCCC(Oc1ccccc1OC)c1ccccc1 (stereo not shown),115 % of DMSO
CN1CCC(=C2c3ccccc3C=Cc3ccccc32)CC1,132 % of DMSO
NCC[C@H](O)C(=O)N[C@@H]1C[C@H](N)[C@@H](O[C@H]2O[C@H](CN)[C@@H](O)[C@H](O)[C@H]2O)[C@H](O)[C@H]1O[C@H]1O[C@H](CO)[C@@H](O)[C@H](N)[C@H]1O,110 % of DMSO
O=C(O)c1cc(-c2ccc(F)cc2F)ccc1O,93 % of DMSO
Nc1ncnc2c1c(-c1cnc3[nH]ccc3c1)nn2C1CCCC1,101 % of DMSO

# Block 2 — organism: Sarcocystis neurona; effect on: parasite activity; concentration: 10 µM; time: 96 h
SMILES,activity class
NS(=O)(=O)Cc1noc2ccccc12,inactive
Cc1c(O)cccc1C(=O)N[C@@H](CSc1ccccc1)[C@H](O)CN1C[C@H]2CCCC[C@H]2C[C@H]1C(=O)NC(C)(C)C,inactive
Cc1ccc(O)c([C@H](CCN(C(C)C)C(C)C)c2ccccc2)c1,inactive
CN(C)[C@@H]1C(O)=C(C(N)=O)C(=O)[C@@]2(O)C(O)=C3C(=O)c4c(O)cccc4[C@@](C)(O)[C@H]3C[C@@H]12,inactive
CC(=O)NS(=O)(=O)c1ccc(N)cc1,inactive
N[C@@H](Cc1cc(I)c(Oc2cc(I)c(O)c(I)c2)c(I)c1)C(=O)O,inactive
CCOC(=O)O[C@]1(C(=O)OCCl)CC[C@H]2[C@@H]3CCC4=CC(=O)C=C[C@]4(C)[C@H]3[C@@H](O)C[C@@]21C,inactive
CC(=O)OCC(=O)NCCCOc1cccc(CN2CCCCC2)c1,inactive

# Block 3 — concentration: 1 µM
# SMILES: CO[C@@H](C)c1c(Nc2ccc([C@@H](N(C)C(=O)C3CCS(=O)(=O)CC3)C(F)(F)F)cc2)cnc2cc(Cl)nn12
target,effect on,method,remaining binding [%]
"CSNK1G1 (Homo sapiens, UniProt Q9HCP0)",cell-free assay,competition with immobilised ligand,99
"Ribosomal protein S6 kinase alpha-2, C-terminal kinase domain (RPS6KA2, Homo sapiens, UniProt Q15349)",cell-free assay,competition with immobilised ligand,89
"LIM domain kinase 2 (LIMK2, Homo sapiens, UniProt P53671)",cell-free assay,competition with immobilised ligand,87
"MAP4K3 (Homo sapiens, UniProt Q8IVH8)",cell-free assay,competition with immobilised ligand,94
"TIE1 (Homo sapiens, UniProt P35590)",cell-free assay,competition with immobilised ligand,96
"DYRK1B (Homo sapiens, UniProt Q9Y463)",cell-free assay,competition with immobilised ligand,75
"BUB1 (Homo sapiens, UniProt O43683)",cell-free assay,competition with immobilised ligand,100
"ACVR2A (Homo sapiens, UniProt P27037)",cell-free assay,competition with immobilised ligand,100
"STK24 (Homo sapiens, UniProt Q9Y6E0)",cell-free assay,competition with immobilised ligand,89
"LIM domain kinase 1 (LIMK1, Homo sapiens, UniProt P53667)",cell-free assay,competition with immobilised ligand,92
"CDC42BPG (Homo sapiens, UniProt Q6DT37)",,competition binding,86
"MARK4 (Homo sapiens, UniProt Q96L34)",cell-free assay,competition with immobilised ligand,89

# Block 4 — method: phase 2a trial; host: idiopathic pulmonary fibrosis patients
# SMILES: CC(C)n1cnc(-c2ccc(F)cc2)c1-c1ncc(C(=O)Nc2ccc(N3CCN(C)CC3)cc2)[nH]1
dose,setting,patients with fatigue
60 mg once daily,grade 5 emergent event,0%
60 mg once daily,grade 3 emergent event,0%
all arms pooled,grade 4 emergent event,0%
all arms pooled,grade 2 emergent event,0%

# Single results of other studies
SMILES,target,effect on,action,concentration,relative to,measurement,result
O=C(O)CNC(=O)C(CS)Cc1ccccc1 (racemic),"DNA polymerase theta, ATPase domain (POLQ, Homo sapiens, UniProt O75417)",enzyme activity,inhibitor,77 µM,untreated,remaining activity,107%

# Excerpt of the above (block 2):
SMILES,activity class
CC(=O)NS(=O)(=O)c1ccc(N)cc1,inactive
Cc1c(O)cccc1C(=O)N[C@@H](CSc1ccccc1)[C@H](O)CN1C[C@H]2CCCC[C@H]2C[C@H]1C(=O)NC(C)(C)C,inactive
CN(C)[C@@H]1C(O)=C(C(N)=O)C(=O)[C@@]2(O)C(O)=C3C(=O)c4c(O)cccc4[C@@](C)(O)[C@H]3C[C@@H]12,inactive
Cc1ccc(O)c([C@H](CCN(C(C)C)C(C)C)c2ccccc2)c1,inactive
N[C@@H](Cc1cc(I)c(Oc2cc(I)c(O)c(I)c2)c(I)c1)C(=O)O,inactive
